Experimental data collected from several papers.
Parts stem from different laboratories: compare values within a part only. Substitutions count along the parent as printed.

Series 1
Target: ABI1, truncated, D143A, DHFR fusion (Arabidopsis thaliana)
Technique: DHFR PCA, deep sequencing
Medium: yeast
Setting: methotrexate growth selection, single substitutions
Together with: (+)-ABA 0.11 µM
Relative to: wild-type fitted maximum
Reading: higher = stronger binding
Starting sequence: PYL1, truncated, DHFR fusion (Arabidopsis thaliana); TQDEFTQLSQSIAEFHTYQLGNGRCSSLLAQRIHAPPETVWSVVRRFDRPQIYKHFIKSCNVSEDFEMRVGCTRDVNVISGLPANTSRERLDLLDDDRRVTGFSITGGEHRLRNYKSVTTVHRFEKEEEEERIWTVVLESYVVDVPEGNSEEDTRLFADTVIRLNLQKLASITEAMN; partner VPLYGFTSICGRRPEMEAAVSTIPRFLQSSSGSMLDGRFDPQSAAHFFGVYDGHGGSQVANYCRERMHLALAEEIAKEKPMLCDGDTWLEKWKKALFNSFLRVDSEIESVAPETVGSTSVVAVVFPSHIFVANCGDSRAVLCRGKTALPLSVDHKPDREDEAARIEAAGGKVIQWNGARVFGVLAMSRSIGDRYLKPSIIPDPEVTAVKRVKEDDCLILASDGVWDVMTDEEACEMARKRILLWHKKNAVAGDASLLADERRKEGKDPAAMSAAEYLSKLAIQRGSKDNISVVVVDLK
| Change | relative binding score |
| --- | --- |
| N114C | -3% |
| T6M | 45.1% |
| F103N | -10.2% |
| Y141S | 3.22% |
| D48W | -6.91% |
| R88C | 20.5% |
| E4I | 43.6% |
| E125R | 32.2% |
| F66P | -4.11% |
| M176W | 13.7% |
| N77L | 32.6% |
| L28W | 1.49% |
| N61D | 39.4% |
| P146H | 0.591% |
| D65M | 8.15% |
| R32M | 30.5% |
| S117F | -5.05% |
| C60G | 1.72% |
| T120S | 65.8% |

Series 2
Target: RNA binding protein fox-1 homolog 2, RRM domain, GST-SBP tag (RBFOX2, Homo sapiens, UniProt O43251-10, residues 100-194)
Technique: RNA Bind-n-Seq
Form: RNA
Medium: in vitro
Tested at: 365 nM
Setting: natural RNA segment, single round, ends assumed
Relative to: no-protein control
Reading: higher = stronger binding
Residues (chain): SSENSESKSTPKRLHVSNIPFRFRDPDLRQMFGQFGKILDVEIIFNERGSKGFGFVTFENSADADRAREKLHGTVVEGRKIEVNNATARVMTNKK
| Oligonucleotide | RBNS enrichment (R) |
| --- | --- |
| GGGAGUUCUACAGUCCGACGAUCAGAAUUGCCCUAUACCUGAGCCUCAACCUUCUGGGGGAAGGGAACUAGAUAACAUGCUUUGUGUGUAUCUGUGUAGUUCUGUGUUGCAGACGGAUGAUAUAUAAUGAUAAUGGAAUUCUCGGGUGCCAA | 0.451 |
| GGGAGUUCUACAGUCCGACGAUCGGAAUCUUUUAUCAUUAAACACCUAGUACGAAGCAUUUGCAGGAACCUACUGUGCAGUAUCAUAGAAGCAAGCAGAUACCAAGCAAAAAACUGAUGAUUGAAGAGUAAAUUGGAAUUCUCGGGUGCCAA | 0.43 |
| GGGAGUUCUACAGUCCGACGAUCCUUAGUCAUGGUGUUGCGUAAAUCAUAUUUUAGCUGCACGGCAUUACCCCACACAGGGUGGCAGAACUUGAAGGGUUACUGACGUGUAAAUGCUGGUAUUUGAUUUCCUGUGGAAUUCUCGGGUGCCAA | 0.464 |
| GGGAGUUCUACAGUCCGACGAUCAAGAGAGCUAGACAGCAGCAUUACCCACUCUGAAGUUUUCUACAAGAGAGUUGAGUGAAUCUGUUUACAUUUAGGAUAAUGUUUUUUUCUUCAAAAGACGCAAUUGCAAUUGGAAUUCUCGGGUGCCAA | 0.312 |
| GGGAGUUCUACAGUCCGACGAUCGACUGCCAGGAUUCCUGAUAUGCCCUGGCUUUGGAGAGUCCCUAGGGAUGCCCACUCGGGGGUGUAGGGAAGACACUGGCUGUGCGUCCUUCUAGGAAGGGGCUUUCAGGUGGAAUUCUCGGGUGCCAA | 0.338 |
| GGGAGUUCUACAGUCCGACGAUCAAAUCCAACAUUCACCUAAGCAAGUAAUUCUUAAAGAUCUUACAGAAACGCAGAGUCAAUCAGGUUUAUAAAGGAAGGCUGAGGGGAGAGAGGAGGCCUGGGGGCCUGGAUGGAAUUCUCGGGUGCCAA | 0.557 |
| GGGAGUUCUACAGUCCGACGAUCCCUUGGCCUCCUCGGCGUGCAACCUGGGCAAGCACCUCGGCGUGCACCAUGGAGCCGAAGCCCAGAGACCCUGUCUCAGGCCUACGCAACAGCCACGAAAUAUUCUGAAGUGGAAUUCUCGGGUGCCAA | 0.36 |
| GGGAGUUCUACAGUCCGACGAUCAACAGCAUAGGAUUGUAUGUGGGAGGUGGAUAGGUCGGUGAUGUGUGGAGCGGAAAAGCAGGUUGGUAAAGUUCCCUUCUUGGGACUUAUUCCUGGAGUCAGUGGAUACAUGGAAUUCUCGGGUGCCAA | 1.22 |
| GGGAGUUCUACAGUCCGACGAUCGCCCCACUAGCCAAGAGAAACAGAGAAAGACCAUUCCCCCUGCCUGUCCUUGCGGCCCUGUCUUCUGAGGUUCUCUGUCUGGGGUUGGCUCUCUUAACCCUUUCUCUGCUUGGAAUUCUCGGGUGCCAA | 0.96 |
| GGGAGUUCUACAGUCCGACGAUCUGGUUUUACACCCACCCCCUGGGCAGGGAGUUUGCACGUAGUUGUGAGCUGUGAGUGGUUAGUGCAUUGCUGGUAUUGCUGAAGGCAGGGUUGAUCCCUCACUUGACUGAUGGAAUUCUCGGGUGCCAA | 1.1 |
| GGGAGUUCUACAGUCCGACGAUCAGGAGUCCAAACAGGGAUGCCAGAGGAAGCUUUCCGUUUUCCUAGCCAACUUGUGUUCUGGGUUUGAAAAAGACCCACCACAAAUGCUUUUUCUAUUUUCUGAUUUAAAAUGGAAUUCUCGGGUGCCAA | 0.332 |
| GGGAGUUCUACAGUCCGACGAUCCUCCUCCCUGCCCCCCUUUUCUUACAAGGAAAGAAAAGUUGGAUCGUCAGUGGCCAGCCUCCCCUCAGAGAGUUCCGUUGGUAGAUACGCUGCUCAUGUCCCCUCUCCCUUGGAAUUCUCGGGUGCCAA | 0.4 |

Series 3
Target: PABPC1L2, full length, GST fusion (mouse, UniProt A0ABA7IW68)
Technique: RNAcompete
Form: RNA
Medium: in vitro
Tested at: 20 nM
Setting: 7-mer, probes averaged, single round
Relative to: mean of 7-mers
Reading: higher = stronger binding
Construct (chain): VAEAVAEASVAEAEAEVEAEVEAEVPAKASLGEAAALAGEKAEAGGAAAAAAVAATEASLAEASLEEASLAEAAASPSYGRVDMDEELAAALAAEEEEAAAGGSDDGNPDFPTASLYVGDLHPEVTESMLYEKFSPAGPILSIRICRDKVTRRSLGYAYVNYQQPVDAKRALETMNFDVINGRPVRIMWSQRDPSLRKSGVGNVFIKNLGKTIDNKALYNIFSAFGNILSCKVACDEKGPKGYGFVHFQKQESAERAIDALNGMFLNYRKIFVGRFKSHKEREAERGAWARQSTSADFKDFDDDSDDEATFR
| Oligonucleotide | 7-mer Z-score |
| --- | --- |
| AGAUCAU | -0.188 |
| GAGGAAG | 0.184 |
| AGAUAAC | -0.0899 |
| UAACACG | -0.13 |
| CCUUUCC | -0.387 |
| UGUGCAG | -0.171 |
| UACAUCA | -0.0319 |
| GGUGCAC | -0.00833 |
| UAACCUG | -0.101 |
| UGCUAAC | -0.235 |
| UAGGCAU | 0.0279 |
| UUGCAAA | 0.331 |
| UGGAACG | 0.0932 |
| GCGCCGC | -0.327 |
| AUAUCUA | -0.0953 |
| ACUGUUC | -0.311 |
| UCUCAUC | -0.389 |
| UCUUAUA | -0.289 |
| AGCUGCU | -0.135 |
| CGUAUUA | -0.253 |
| UGCUCCG | -0.32 |

Series 4
Target: Prothrombin, mature alpha-thrombin (F2, Homo sapiens, UniProt P00734)
Technique: aptamer microarray, sandwich
Form: DNA with 2'F-ANA
Medium: in vitro
Tested at: 200 nM
Setting: whole 15-mer aptamer, many near background
Together with: Cy3 exosite-II aptamer, 400 nM
Reading: higher = stronger binding
Oligonucleotide: GGTTGGTGTGGTTGG
| Modification | mean fluorescence intensity [a.u.] |
| --- | --- |
| 2'F-ANA at 3 4 6 8 9 10 14 | 178 |
| 2'F-ANA at 4 5 6 7 8 9 11 12 14 15 | 49.7 |
| 2'F-ANA at 1 4 7 9 12 13 15 | 166 |
| 2'F-ANA at 1 2 3 4 9 10 12 13 14 | 53.3 |
| 2'F-ANA at 2 4 7 8 9 12 13 14 15 | 118 |
| 2'F-ANA at 6 11 15 | 391 |
| 2'F-ANA at 2 3 14 | 495 |
| 2'F-ANA at 2 3 4 5 6 7 9 10 11 12 14 | 60.4 |
| 2'F-ANA at 1 2 4 5 6 7 8 9 10 13 15 | 54.2 |
| 2'F-ANA at 4 6 8 9 13 15 | 167 |
| 2'F-ANA at 2 3 4 5 6 12 13 14 | 52.7 |
| 2'F-ANA at 4 5 7 9 13 15 | 51.2 |
| 2'F-ANA at 2 3 4 6 8 9 11 12 14 15 | 229 |
| 2'F-ANA at 1 2 3 4 7 9 10 12 13 | 65.3 |
| 2'F-ANA at 1 2 5 6 9 12 13 | 75.8 |
| 2'F-ANA at 1 3 4 5 9 10 13 | 44.5 |

Series 5
Target: Histone acetyltransferase KAT6A, winged helix 2, GST fusion (KAT6A, Homo sapiens, UniProt Q92794, residues 85-181)
Technique: protein binding microarray
Form: double-stranded DNA, one strand shown
Medium: in vitro
Tested at: not given
Setting: 8-mer, flanks averaged, mean of 2 arrays, mostly near background
Relative to: not given
Reading: higher = stronger binding
Residues (chain): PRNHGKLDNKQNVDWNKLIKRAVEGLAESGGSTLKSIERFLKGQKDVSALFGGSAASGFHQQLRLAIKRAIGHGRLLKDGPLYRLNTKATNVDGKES
| Oligonucleotide | E-score |
| --- | --- |
| GCTAAGAA | 0.0194 |
| ATCTAACC | -0.121 |
| AATCCTAC | -0.127 |
| GCCCTGCC | 0.106 |
| GCCATGTA | -0.156 |
| GACCACTA | -0.154 |
| AGACAGTA | -0.00747 |
| CAATGGGG | -0.191 |
| GGAGACCA | -0.0252 |
| GCCCCCGC | 0.256 |
| CTTCCGTA | -0.142 |
| CAAACCTC | -0.171 |
| ACGGACAG | -0.0466 |
| AAGTCAAT | -0.14 |
| AAAAATAC | -0.0842 |
| CGCTTAAA | -0.00793 |
| AGCCATTG | 0.0141 |
| TGCATGCA | 0.218 |
| CTAGACGC | -0.0178 |
| GATGACAC | 0.0141 |
| AGAGAACG | -0.0218 |
| AGGGGATA | -0.175 |
| ACTAAGCC | -0.0927 |
| CCTGCAAA | 0.0526 |
| AAAATCAT | 0.143 |
